Measurements gathered from unrelated publications.
Every numbered part comes from another study and shows a few of its results, in no order.

Block 1
Target: RING finger protein unkempt homolog, zinc fingers 1-6, SBP tag (UNK, Homo sapiens, UniProt Q9C0B0, residues 30-357)
UniProt Q9C0B0, sequence (30-357, looked up): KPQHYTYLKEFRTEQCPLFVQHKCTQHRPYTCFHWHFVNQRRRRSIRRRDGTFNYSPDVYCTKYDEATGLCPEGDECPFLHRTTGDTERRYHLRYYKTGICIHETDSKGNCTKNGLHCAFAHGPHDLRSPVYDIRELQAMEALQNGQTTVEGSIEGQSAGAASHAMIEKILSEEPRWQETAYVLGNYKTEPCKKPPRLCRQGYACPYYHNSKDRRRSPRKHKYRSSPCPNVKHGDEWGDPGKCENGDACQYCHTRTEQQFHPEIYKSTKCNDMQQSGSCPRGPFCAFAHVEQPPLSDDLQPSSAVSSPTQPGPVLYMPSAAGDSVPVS
Method: RNA Bind-n-Seq
Molecule type: RNA
Matrix: in vitro
Concentration: 100 nM
Setting: RNA with constant flanks, vertebrate orthologous sites, ends assumed
Relative to: input RNA pool
Direction: higher = stronger binding
Quantity: bound/input enrichment
Shared flanks, not repeated: GGGAGUUCUACAGUCCGACGAUC … CAACAGAGGAUUGAGCAUCA
CAUUGUACUACAGAAAUUUGUCGCGUUUAUAGACUAGCCGCAGUGAUAACUGCUCUGUGCUAGUAGAAUUCCUCCACUAUUAGCUUUCAAGUUUUUGGUUUUGUCUGCUACUUGAAACCA: 0.4 ratio
UUACAGUCAUUGAUGGACUCUAUUUUUUUAUUAUUACUUGGACCUUGGUCGUUUUUAUACUAGCAAUGAAAAUGUCUUGUUUUAAUUUGUUUUUUGGGGUGGGGGUGGGCAAUGUCUUGC: 0.996 ratio
GUUGGGCCAUGACCCCUAUAGAUUAGGUCAUGAUGCUUACAGGUUAGGACAGGACCCUUAUAGAUUAGGCCAUGAUCCCUACAGACUAACUCCUGAUCCCUAUAGGAUGUCACCUAGACC: 0.967 ratio
UAUUAAACACCAUCAGCGGCCUUCAAGUACACAGUCUGUUCAGGCACAACUGACUGGUUCGAGUUAAUUUUCAGGAUACAUCCAGGCAGUCAGCACUGUCCUGCAGUCCAGUUGGAGACG: 0.196 ratio
GCAACAAUGGCUCCUGCUCUAUUACAAAGAUAAGAAACAGUCCCACGCCUAAACAAUAAAUAGAUAUUUUUGAAGUUUAAAUAUUUACAUUUUGUAAGUCAGCUGUUUGGGAUGUCAUGU: 0.683 ratio
GUUGUGACCCAUUUAACAUACACAAAAAAUUAGCCAAAAAAAAUUUACAUGUAAUUGACUUAGAUGAUGCCACUUUUCUGAGUGCAAAAUUUGGAAGACAGCUUGUACCUGGUUGGAAAC: 2.93 ratio
UUUAAUUUCUUGUAUACAUGAUCUAGUCCUGUAUUAUUAUUAUUUUCUUACACGAUUGUUUGUCAGUAUGUCUGUGUCUGUCACAUUUCCUUCUCAGGCGAAGGGCUAGAGUUAAAAAAA: 0.804 ratio
UGGGUUACUCCUAUUAUUAUCAAGUAGCUGGAAUUGUGAAGGUCGGAGUAGUUAGAUCUUUAGCUUUUAUUCCUUAUUUUUUUGUAUUACUCUCCAUGUGUAUAAAUUAUUGAUCAUGUU: 4.54 ratio
ACGGGUGUACCUGUGGGGCCCUGCUGGCCACUUAGCGUCGUUUGAUUUGUGACCUUGACAUAAUAGAUAGGCUUGUUGUUUUUUAAUUUAAAGAUAUUAAGACUUAAUUCACUAAAAUUU: 0.43 ratio
UGCACUAGUGCUCUUCUAUGGAAGAGAUGAACUGGGGACAGCUAUCUCCUUUUUAUAGAUUACUUUGUUUCUAAAUUAUGACCAAAAUAUUUUGCUAUGUCUUUAUAUGUGAAAUCUUUU: 0.806 ratio
AUCUCUCAGUGACAGCAUUCCAUCUGUAGCUGACUCCCACUCAAGUCAUUUCUCCGAAUUUAGUUGCUCUGACUUGGAAAGCAUGAAAACUUCCUGUAGCCAUGGCUCCAAUGAUUAUCA: 0.538 ratio

Block 2
Target: Ras GTPase-activating protein-binding protein 1, RRM domain (G3BP1, Homo sapiens, UniProt Q13283)
UniProt Q13283, sequence (whole entry, looked up): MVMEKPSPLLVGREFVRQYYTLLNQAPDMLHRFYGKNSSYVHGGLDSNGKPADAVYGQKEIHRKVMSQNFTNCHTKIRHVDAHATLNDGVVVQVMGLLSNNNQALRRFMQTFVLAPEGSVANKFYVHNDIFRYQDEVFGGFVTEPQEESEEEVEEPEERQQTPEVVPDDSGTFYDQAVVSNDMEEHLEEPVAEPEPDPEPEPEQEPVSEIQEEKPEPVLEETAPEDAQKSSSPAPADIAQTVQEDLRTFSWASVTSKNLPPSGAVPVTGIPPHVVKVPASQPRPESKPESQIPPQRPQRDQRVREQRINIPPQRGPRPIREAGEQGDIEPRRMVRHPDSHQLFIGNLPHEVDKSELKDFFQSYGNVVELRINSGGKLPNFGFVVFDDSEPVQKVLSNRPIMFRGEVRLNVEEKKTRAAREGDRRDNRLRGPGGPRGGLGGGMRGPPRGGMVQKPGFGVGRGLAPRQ
Method: RNA Bind-n-Seq
Molecule type: RNA
Matrix: in vitro
Concentration: 1 µM
Setting: whole 134-nt RNA, ends assumed
With: 150 mM KCl
Relative to: input library
Direction: higher = stronger binding
Quantity: log2 enrichment
Shared flanks, not repeated: GGGAGUUCUACAGUCCGACGAUC … UGGAAUUCUCGGGUGUCAAGG
GCAGGAAGUAAAAACAAAUGGAAAUGCUUCGGAUAGUGGCAGGGGUGGGGGUUGCUAAGGAAAGGGUGGGAUGGGAGUGGGUAAAGAAUU: 0.718
ACCAUGCAGGUGGGCAUCUUUGGGAAGUGGGGCAAGGGGGGGAUAGGGAGGGGGGUUACACUUUGGGAACAGGUGGUCCCAGGUCGUUUC: -0.091
UCCUGUGCUACACAUCGUAUGUACCGAAUCGGGGAAAAAGGGGAAAAAGGGGAAAAAGGGAAAGUAUUAUGUUACGCCGUUCGGAUCUGC: 0.0323
AGUCCUGUGCUACACAUCGUAUGUACCGAAUCGGGUUUGGGUUUUUGGGUUUUUGGGAAAGUAUUAUGUUACGCCGUUCGGAUCUGCACU: 0.467
GUCCUGUGCUACACAUCGUAUGUACCGAAUCGGAAAAAGGAAAAAGGGGAAAAAGGGGAAAGUAUUAUGUUACGCCGUUCGGAUCUGCAC: 0.0434
UCAUGUGGAUGAAGCAGAAAAAGAAGCUCAGAAGAAGCCAGCUGAAUCUCAAAAAAUAGAGCGUGAAGAUGCCCUGGCUUUUAAUUCAGC: -0.269
GCAGGAAGUAAAAACAAAUGGAAAUGCUUCAGAUAGUGGCAGGGGUGGGGGUUGCUAAGGAAAGGGUGGGAUGGGAGUGGGUAAAGAGUU: 1.01
UCCUGUGCUACACAUCGUAUGUACCGAAUCGGGAAAGGGAAAAAAAGGGUUUUUUUGGGAAAGUAUUAUGUUACGCCGUUCGGAUCUGCA: 0.0748
GCAGGAAGUAAAAACAAAUGGAAAUGCUUCGGAUAGUGGCAGGGGUGGGGGAAACUAAGGAAAGGGUGGGAUGGGAGUGGGUAAAGAGUU: 1.52
UGGACAGGUUGCUGGACCCCGCCAACAGAGCCCACCUGGGCCUGGAGGAGCAGCUGAGAGAGCUGCUGGACAUGCUCGACCUCACCUGCG: -0.779
UGCUUGUGUUUCUGACAGAUUCACUGCCUUCUGAGGACUUGGAUCCUGCCGAUCCCCCGAUCUCGGUAACUGUUGGCCUGAUCUGGCUGU: 0.0303
CAAGUCCUGUGCUACACAUCGUAUGUACCGAAUCAAACCCAAAUUUAAAUUUAAAAAAGUAUUAUGUUACGCCGUUCGGAUCUGCACUUC: -0.285
UAACUUUAGAGGAGGAUCUGAUGGAUAUGGCAGUGGACGUGGAUUUGGGGAUGGCUAUAAUGGGUAUGGAGGAGGACCUGCAGGUGGCAA: -0.453
GUCCUGUGCUACACAUCGUAUGUACCGAAUCGGGUUUGGGAAAAAGGGUUUUUUUGGGAAAGUAUUAUGUUACGCCGUUCGGAUCUGCAC: 0.364

Block 3
Target: Histone acetyltransferase KAT6A, both winged helices, GST fusion (KAT6A, Homo sapiens, UniProt Q92794, residues 1-181)
Method: protein binding microarray
Molecule type: double-stranded DNA, one strand shown
Matrix: in vitro
Concentration: not given
Setting: 8-mer, flanks averaged, mean of 2 arrays, mostly near background
Relative to: not given
Direction: higher = stronger binding
Quantity: E-score
Target sequence (chain): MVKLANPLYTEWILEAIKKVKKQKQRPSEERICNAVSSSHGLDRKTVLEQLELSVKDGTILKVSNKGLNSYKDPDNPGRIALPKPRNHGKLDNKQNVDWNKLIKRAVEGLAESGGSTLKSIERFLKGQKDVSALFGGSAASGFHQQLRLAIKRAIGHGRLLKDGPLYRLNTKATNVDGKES
CAAGCGGA: 0.0948
TAGTGCCA: -0.133
GAGGACTC: -0.132
CTCCTCTC: -0.0164
ATGACAAT: -0.158
AATTTTCG: 0.00852
GGTGTACA: -0.0538
ACACTCCC: -0.0323
ATCTCATA: -0.196
GCCTCTAC: -0.113
ATACTGGC: -0.229
CGTACTAG: 0.094
GTCTCAAC: -0.115
TCCTCAGA: -0.103
AAAGGCGC: 0.266
CTATTACA: -0.0534
ATGTTTGG: 0.0183
AACGATAC: -0.196
CAGATATA: -0.0579
GTGACACA: 0.13

Block 4
Target: RNA binding protein fox-1 homolog 2, RRM domain, GST-SBP tag (RBFOX2, Homo sapiens, UniProt O43251-10, residues 100-194)
Method: RNA Bind-n-Seq
Molecule type: RNA
Matrix: in vitro
Concentration: 365 nM
Setting: natural RNA segment, single round, ends assumed
Relative to: no-protein control
Direction: higher = stronger binding
Quantity: RBNS enrichment (R)
Shared flanks, not repeated: GGGAGUUCUACAGUCCGACGAUC … UGGAAUUCUCGGGUGCCAA
Residues (chain): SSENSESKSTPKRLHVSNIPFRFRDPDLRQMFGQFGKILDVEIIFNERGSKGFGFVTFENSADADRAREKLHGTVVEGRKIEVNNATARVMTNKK
CUCUCCGAAGCCCCUGGACCUGUUUCCUUGUCAUUUGACCCUCGUCUGUGCCCGCGGAGACCUCCUCUGACCAAGGGGCACUAGUAUGCCUUGCGCUAUCAUGACUGACU: 0.293
AGAACGAACAGUCAGAAGCAAGUGGAACUGAUAACGAUGACCAUCCUGGACGUGAGCUUCCCGCGGUGGCAGAACCGAAUGCUUUCUUCCCCCUCUCCUUCCUCCCCAGU: 8.42
UGGUAUUCUGAGAGUUGCUCUGUAUUCUGGGUUCUGAAGAUUAUUUGAAAAAUAACUCCUACUACAUUGAAAUGCAGACUUAAAAAUUUAAACAUUGGAUUAGGCAGUCA: 0.492
AUGCAGAAGGUCUGAUUCCAGAUCGUACCUAAGCAAGACAAUGCUCCAAGACUGUACCAAGCCAAGCUCUGAUAAGCUUCCAUCUUCCAUGGCUGGUAGACUGAACUGUC: 0.247
UUCAUGACAGAGAAGGGGAAGCCCUGUUCUGACAACAGACAUUUCAGACAACCUUGCUGGCUUUCCACACCUGCCUGGCCCCCUCCUCCCUCCACACUUCCACUUUGUCC: 0.328
AAAACGUACUCAGCAAAAAAAAAAAAAAAAAAAAAAAAAAAAAAAAAUUAACACAGGAUAAUUAGUGUCACCGUUUAUUCCAAACUAGGCCAGCUGGGUUUCCAGCUUUU: 2.1
UGUGUUUCAGGAUUAACUUCUACAUGCCUUUAAGUUUUUCUGAGUAUCAGCAUAUCAUUUAGACAUUGUGAAAAUGAAUUCCUAAACAUUUUCAUAAAACCGGUUAAUUU: 0.363
ACAUUUGCCAGAAUAUAAGAGUUUUGUUUUAAAUACAGUCUUGUUAGGAUUUUACGUUAUUGUUAUUAUGGAAAGUGAUUGUGAUGCUAUUUAUCUUCAGGGUCACUCUG: 0.845
AAUGAGAAUUUUAAGUAUUUGCAAUAAAUAUGUGUAUAUAGAUUGUAUGUAUUCAUAUAUUAUUUUUCAUUUUAUUAUUAAGUAAAAGAUAAUUAAAAGUGAAAUUAAAA: 1.41
UGUGAUGAAGCCUGCAGUCUGCACUGUGUUGCUGAGCACAUGGAUUUCACCACUGGAACACAGGUGUGCUGCUUGUUAGCAAGCAGAGCAAUAAAGAUGUGCUGGAUGUC: 0.268
CCUCGCGCCUCAAAUCCCCCUACCCCGUGUGAACUCUAGGGCAUCGGACCUCAAGGGGUUAACUGGACAGACGGGGGGCGGGAGGGGAGAGCGCCCCCUCCCAUUGUAUA: 0.615
AUCCAUGCAGUUUUAUGUCUUCAUAUAACUGGUAUCUUGUGAGUUUGCAAGCAAUGGGAUGAGCAAGAAAAAAAGGACGCAUGGAGGAGAAAAAUUUGAACGAGGCUAGU: 2.87

Block 5
Target: Sal-like protein 4, full length isoform A (SALL4, Homo sapiens, UniProt Q9UJQ4, residues 1-1053)
UniProt Q9UJQ4, sequence (whole entry, looked up): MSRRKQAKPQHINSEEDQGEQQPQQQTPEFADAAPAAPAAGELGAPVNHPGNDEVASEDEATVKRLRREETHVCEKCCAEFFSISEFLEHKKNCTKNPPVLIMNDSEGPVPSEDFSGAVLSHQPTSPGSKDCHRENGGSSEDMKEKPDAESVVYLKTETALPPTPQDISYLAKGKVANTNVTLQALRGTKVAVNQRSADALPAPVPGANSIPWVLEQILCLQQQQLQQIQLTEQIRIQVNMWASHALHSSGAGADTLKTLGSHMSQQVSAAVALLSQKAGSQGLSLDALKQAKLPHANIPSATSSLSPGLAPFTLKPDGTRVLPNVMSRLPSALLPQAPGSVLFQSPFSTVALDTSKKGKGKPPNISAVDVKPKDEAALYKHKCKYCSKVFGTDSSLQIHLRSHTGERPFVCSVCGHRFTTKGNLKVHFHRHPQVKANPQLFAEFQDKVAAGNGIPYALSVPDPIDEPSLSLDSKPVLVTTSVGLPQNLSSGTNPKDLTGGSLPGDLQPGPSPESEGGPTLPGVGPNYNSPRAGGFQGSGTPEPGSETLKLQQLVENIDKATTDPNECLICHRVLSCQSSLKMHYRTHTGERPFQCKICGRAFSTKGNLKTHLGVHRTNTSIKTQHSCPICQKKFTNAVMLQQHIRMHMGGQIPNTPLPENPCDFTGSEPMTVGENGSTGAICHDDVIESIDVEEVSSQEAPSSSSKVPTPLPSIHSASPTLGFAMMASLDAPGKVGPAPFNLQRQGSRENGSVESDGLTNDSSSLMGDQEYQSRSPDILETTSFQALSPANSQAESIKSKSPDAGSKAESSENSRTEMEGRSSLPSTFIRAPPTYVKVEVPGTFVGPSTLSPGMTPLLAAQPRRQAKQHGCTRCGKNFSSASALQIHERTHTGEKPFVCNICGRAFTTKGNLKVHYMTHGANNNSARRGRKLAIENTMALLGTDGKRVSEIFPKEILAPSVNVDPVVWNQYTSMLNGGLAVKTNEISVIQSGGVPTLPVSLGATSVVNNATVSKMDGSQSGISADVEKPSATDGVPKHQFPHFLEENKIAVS
Method: universal PBM
Molecule type: double-stranded DNA, one strand shown
Matrix: in vitro
Concentration: 600 nM
Setting: 8-mer, flanks averaged, mean of replicates
Direction: higher = stronger binding
Quantity: E-score
ACAAAAGT: 0.211
ACACATGG: 0.0026
GCTGGTCA: -0.102
CAATATAC: 0.279
CGATAATA: 0.334
AAGCTTAG: 0.073
CGCTAAAA: 0.00773
TCGATGCA: -0.00148
GAGCGACA: 0.0102
CAAATACA: 0.292
ACTCACAT: 0.119
AAGCCTAT: 0.0975
AGCAATGA: 0.0156
GCGTCCAA: -0.173
AGGGTACG: -0.0785
CTACGATC: -0.0375
CCAGGGCC: -0.442
ATTCCTAG: 0.161
CAGGAAGG: -0.21
TAATAGGA: 0.336
CATGCGAG: -0.0277
